Results of several laboratories.
Compare with care: the assays were run in different laboratories. Numbers after ± are the reported error.
Organism: Plasmodium falciparum

N#Cc1c(-c2ccco2)[n+]([O-])c2ccc(Cl)cc2[n+]1[O-]
IC50 (parasite growth, [3H]hypoxanthine incorporation; K1 chloroquine-resistant): 340 ± 40 nM

CC1=CC(c2ccc[nH]2)=NC1=CNC1CCCCCCC1
IC50 (parasite growth; Dd2, chloroquine-resistant): > 250 nM

O=C(O)[C@@H]1Cc2c([nH]c3ccccc23)[C@@H](c2ccc(Cl)cc2Br)N1
IC50 (parasite growth; Dd2; 72 h): 360 ± 40 nM

COc1ccc2cc1Oc1cc3c(cc1OC)CCN(C)C3Cc1ccc(cc1)Oc1c(O)c(OC)cc3c1C(C2)N(C)CC3 (centres unmarked)
IC50 (parasite growth, SYBR green I; 3D7): 571 ± 63.8 nM

CC(=O)O[C@H]1C[C@@H]2[C@@]3(C)C=CC(=O)C(C)(C)[C@H]3C[C@@H](O)[C@@]2(C)C2=CC[C@@H](c3ccoc3)[C@@]21C
IC50 ([3H]hypoxanthine incorporation; W2, chloroquine-resistant): 30200 ± 500 nM

CCCCN1C(=O)c2ccc3c4c(ccc(c24)C1=O)C(=O)N(CCNc1c2ccc(Cl)cc2nc2ccc(OC)cc12)C3=O
IC50 (parasite growth, SYBR Green; W2; 72 h, drug-resistant strain, blood stage): 52.2 nM

COC1=CC(c2ccc[nH]2)=NC1=CNC1CCCCC1
IC50 (parasite growth; Dd2, chloroquine-resistant): 71 nM

CC[C@H](C)[C@@H]1NC(=O)[C@H](CCCCN)NC(=O)[C@H](CCCCN)NC(=O)[C@H](Cc2ccc(O)cc2)NC(=O)[C@H](CC(C)C)NC(=O)[C@@H]2CCCN2C(=O)[C@H](C)NC(=O)CNC(=O)CNC(=O)[C@H](CO)NC(=O)CNC(=O)CNC(=O)[C@H](CO)NC(=O)[C@H](CCC(=O)O)NC(=O)[C@H](CC(C)C)NC(=O)[C@H](CC(C)C)NC(=O)[C@H](CCCCN)NC(=O)[C@H](CCCCN)NC(=O)[C@H]([C@@H](C)CC)NC(=O)[C@H]([C@@H](C)CC)NC(=O)[C@H](CCCCN)NC(=O)[C@H](CCCCN)NC(=O)[C@H](Cc2ccc(O)cc2)NC(=O)[C@H](CC(C)C)NC(=O)[C@@H]2CCCN2C(=O)CNC(=O)CNC(=O)CSC[C@@H](C(N)=O)NC(=O)[C@H](CC(C)C)NC(=O)[C@H](CCCCN)NC(=O)[C@H](CCCCN)NC(=O)[C@H]([C@@H](C)CC)NC1=O
IC50 (parasite growth; 3D7; 72 h, Albumax II medium, no serum): ~8000 nM

CC1=CC(=CNC23CC4CC(CC(C4)C2)C3)N=C1c1ccc[nH]1
IC50 (parasite growth; Dd2, chloroquine-resistant): 170 nM

COc1cc2c3cc1Oc1cc(ccc1O)CC1c4c(cc(OC)c(O)c4Oc4ccc(cc4)CC3N(C)CC2)CCN1C (centres unmarked)
IC50 (parasite growth, SYBR green I; INDO): 466 ± 50.8 nM

CCCCN=Cc1[nH]c(-c2ccc[nH]2)cc1OC
IC50 (parasite growth; Dd2, chloroquine-resistant): 159 nM

COC1=CC(c2ccc[nH]2)=NC12O[C@@H](C)C[C@@H]1CCCCC(=O)CCc3ccc([nH]3)[C@H]12 (some centres unmarked)
IC50 (parasite growth; DD2; drug-resistant strain, blood stage): 127 nM

CCC1=C(C)C(c2ccc[nH]2)=NC1=CNC1CCCCCCC1
IC50 (parasite growth; 7G8, chloroquine-resistant): 128 nM

COc1cccc2c(-c3ccc(O)c4c3C[C@@H](C)N[C@@H]4C)c(C)cc(O)c12
IC50 (parasite growth, SYBR Green; W2; 96 h, drug-resistant strain, blood stage): 138 nM

CCC1=CC(c2ccc[nH]2)=NC1=CNC1CCCCCCC1
IC50 (parasite growth; Dd2, chloroquine-resistant): > 250 nM

Cc1ccc(C(C)C)cc1.Cn1ccnc1CNCCNc1ccnc2cc(Cl)ccc12.[Cl-].[Cl][Ru+]
IC50 (parasite growth, parasite lactate dehydrogenase; Dd2 chloroquine-resistant): 19700 ± 400 nM

COC(=O)[C@@H]1Cc2c([nH]c3ccccc23)[C@@H](c2cccnc2)N1
IC50 (parasite growth; 48 h, drug-resistant strain, blood stage): 2.12 µg/mL

CC[C@H](C)[C@@H]1NC(=O)[C@H](CCCCN)NC(=O)[C@H](CCCCN)NC(=O)[C@H](Cc2ccc(O)cc2)NC(=O)[C@H](CC(C)C)NC(=O)[C@@H]2CCCN2C(=O)[C@H](C)NC(=O)CNC(=O)CNC(=O)[C@H](CO)NC(=O)CNC(=O)CNC(=O)[C@H](CO)NC(=O)[C@H](CCC(=O)O)NC(=O)[C@H](CC(C)C)NC(=O)[C@H](CC(C)C)NC(=O)[C@H](CCCNC(=N)N)NC(=O)[C@H](CCCCN)NC(=O)[C@H]([C@@H](C)CC)NC(=O)[C@H]([C@@H](C)CC)NC(=O)[C@H](CCCCN)NC(=O)[C@H](CCCCN)NC(=O)[C@H](Cc2ccc(O)cc2)NC(=O)[C@H](CC(C)C)NC(=O)[C@@H]2CCCN2C(=O)[C@H](C)NC(=O)CNC(=O)CNC(=O)[C@H](CO)NC(=O)CNC(=O)CNC(=O)[C@H](CO)NC(=O)[C@H](CCC(=O)O)NC(=O)[C@H](CC(C)C)NC(=O)[C@H](CC(C)C)NC(=O)[C@H](CCCNC(=N)N)NC(=O)[C@H](CCCCN)NC(=O)[C@H]([C@@H](C)CC)NC1=O
IC50 (parasite growth; 3D7; 72 h, 5% serum plus Albumax II): 12500 ± 900 nM

CCCCc1cc(CN(Cc2ccccn2)Cc2ccccn2)c(O)c(CN(Cc2ccccn2)Cc2ccccn2)c1
IC50 (growth, [3H]hypoxanthine incorporation; HB3 chloroquine-sensitive; 48 h): 135 ± 10 nM

COc1ccc2c(=O)c3cc(OS(=O)(=O)C(F)(F)F)ccc3[nH]c2c1
IC50 (parasite growth): 60.7 nM

CC[C@H](C)[C@@H]1NC(=O)[C@H](CCCCN)NC(=O)[C@H](CCCCN)NC(=O)[C@H](Cc2ccc(O)cc2)NC(=O)[C@H](CC(C)C)NC(=O)[C@@H]2CCCN2C(=O)[C@H](C)NC(=O)CNC(=O)CNC(=O)[C@H](CO)NC(=O)CNC(=O)CNC(=O)[C@H](CO)NC(=O)[C@H](CCC(=O)O)NC(=O)[C@H](CC(C)C)NC(=O)[C@H](CC(C)C)NC(=O)[C@H](CCCCN)NC(=O)[C@H](CCCCN)NC(=O)[C@H]([C@@H](C)CC)NC(=O)[C@H]([C@@H](C)CC)NC(=O)[C@H](CCCCN)NC(=O)[C@H](CCCCN)NC(=O)[C@H](Cc2ccc(O)cc2)NC(=O)[C@H](CC(C)C)NC(=O)[C@@H]2CCCN2C(=O)[C@H](C)NC(=O)CNC(=O)[C@@H]2CSSC[C@H](NC(=O)[C@H](CC(C)C)NC(=O)[C@H](CCCCN)NC(=O)[C@H](CCCCN)NC(=O)[C@H]([C@@H](C)CC)NC1=O)C(=O)N[C@@H](CCC(=O)O)C(=O)N[C@@H](CC(N)=O)C(=O)NCC(=O)N2
IC50 (parasite growth; 3D7; 72 h, Albumax II medium, no serum): ~46000 nM

CCNCC1=C(O)C(=O)c2ccccc2C1=O
IC50 (parasite growth; W2; drug-resistant strain, blood stage): 30600 nM

CC[C@H](C)[C@@H]1NC(=O)[C@H](CCCCN)NC(=O)[C@H](CCCCN)NC(=O)[C@H](Cc2ccc(O)cc2)NC(=O)[C@H](CC(C)C)NC(=O)[C@@H]2CCCN2C(=O)[C@H](C)NC(=O)CNC(=O)CNC(=O)[C@H](CO)NC(=O)CNC(=O)CNC(=O)[C@H](CO)NC(=O)[C@H](CCC(=O)O)NC(=O)[C@H](CC(C)C)NC(=O)[C@H](CC(C)C)NC(=O)[C@H](CCCCN)NC(=O)[C@H](CCCCN)NC(=O)[C@H]([C@@H](C)CC)NC(=O)[C@H]([C@@H](C)CC)NC(=O)[C@H](CCCCN)NC(=O)[C@H](CCCCN)NC(=O)[C@H](Cc2ccc(O)cc2)NC(=O)[C@H](CC(C)C)NC(=O)[C@@H]2CCCN2C(=O)[C@H](C)NC(=O)CNC(=O)[C@@H](NC(=O)CN)CSSC[C@@H](C(=O)N[C@@H](CCC(=O)O)C(=O)N[C@@H](CO)C(=O)O)NC(=O)[C@H](CC(C)C)NC(=O)[C@H](CCCCN)NC(=O)[C@H](CCCCN)NC(=O)[C@H]([C@@H](C)CC)NC1=O
IC50 (parasite growth; 3D7; 72 h, 5% serum plus Albumax II): 34300 ± 3200 nM

O=C1CC2(CCN(c3cc(N4CCN(S(=O)(=O)c5ccc(Cl)s5)CC4)ncn3)CC2)Oc2ccccc21
IC50 (parasite growth; W2): 4760 ± 250 nM

CC1CCC(C(C)(C)C(=O)Nc2ccc(Oc3ccccc3)cc2)CC1 (centres unmarked)
IC50 (parasite proliferation, SYBR Green; 3D7; 72 h): 48 nM

CCCCNCC(O)Cn1c2ccc(Cl)cc2c2cc(Cl)ccc21 (centres unmarked)
IC50 (SYBR Green I; 3D7 chloroquine-sensitive; 72 h): 248 ± 32 nM

CC[C@H](C)[C@@H]1NC(=O)[C@H](CCCCN)NC(=O)[C@H](CCCCN)NC(=O)[C@H](Cc2ccc(O)cc2)NC(=O)[C@H](CC(C)C)NC(=O)[C@@H]2CCCN2C(=O)[C@H](C)NC(=O)CNC(=O)CNC(=O)[C@H](CO)NC(=O)CNC(=O)CNC(=O)[C@H](CO)NC(=O)[C@H](CCCCN)NC(=O)[C@H](CC(C)C)NC(=O)[C@H](CC(C)C)NC(=O)[C@H](CCCCN)NC(=O)[C@H](CCCCN)NC(=O)[C@H]([C@@H](C)CC)NC(=O)[C@H]([C@@H](C)CC)NC(=O)[C@H](CCCCN)NC(=O)[C@H](CCCCN)NC(=O)[C@H](Cc2ccc(O)cc2)NC(=O)[C@H](CC(C)C)NC(=O)[C@@H]2CCCN2C(=O)[C@H](C)NC(=O)CNC(=O)CNC(=O)[C@H](CO)NC(=O)CNC(=O)CNC(=O)[C@H](CO)NC(=O)[C@H](CCC(=O)O)NC(=O)[C@H](CC(C)C)NC(=O)[C@H](CC(C)C)NC(=O)[C@H](CCCCN)NC(=O)[C@H](CCCCN)NC(=O)[C@H]([C@@H](C)CC)NC1=O
IC50 (parasite growth; 3D7; 72 h, 5% serum plus Albumax II): 9200 ± 1000 nM

CC1=CC(c2ccc[nH]2)=NC1=CNC12CC3CC(CC(C3)C1)C2
IC50 (parasite growth; Dd2, chloroquine-resistant): 15 nM

CC[C@H](C)[C@@H]1NC(=O)[C@H](CCCCN)NC(=O)[C@H](CCCCN)NC(=O)[C@H](Cc2ccc(O)cc2)NC(=O)[C@H](CC(C)C)NC(=O)[C@@H]2CCCN2C(=O)[C@H](C)NC(=O)CNC(=O)CNC(=O)[C@H](CO)NC(=O)CNC(=O)CNC(=O)[C@H](CO)NC(=O)[C@H](CCC(=O)O)NC(=O)[C@H](CC(C)C)NC(=O)[C@H](CC(C)C)NC(=O)[C@H](CCCCN)NC(=O)[C@H](CCCCN)NC(=O)[C@H]([C@@H](C)CC)NC(=O)[C@H]([C@@H](C)CC)NC(=O)[C@H](CCCCN)NC(=O)[C@H](CCCCN)NC(=O)[C@H](Cc2ccc(O)cc2)NC(=O)[C@H](CC(C)C)NC(=O)[C@@H]2CCCN2C(=O)[C@H](C)NC(=O)CNC(=O)[C@@H]2CSSC[C@H](NC(=O)[C@H](CC(C)C)NC(=O)[C@H](CCCCN)NC(=O)[C@H](CCCCN)NC(=O)[C@H]([C@@H](C)CC)NC1=O)C(=O)N[C@@H](CCCCN)C(=O)N[C@@H](CC(N)=O)C(=O)NCC(=O)N2
IC50 (parasite growth; 3D7; 72 h, 5% serum plus Albumax II): 14400 ± 1300 nM

Clc1ccc(C2=CC(c3ccc[nH]3)=NC2=CNC23CC4CC(CC(C4)C2)C3)cc1
IC50 (parasite growth; 7G8, chloroquine-resistant): 126 nM

O=C1C(O)=C(I)C(=O)c2ccccc21
IC50 (parasite growth, SYBR Green; F32; drug-resistant strain, blood stage): > 50000 nM

OCCCCCCCCCCCCOCCCc1cccnc1
IC50 (anti-HRPII ELISA; W2 chloroquine-resistant; 72 h): 15100 ± 800 nM

Some of these lines once more:
CC[C@H](C)[C@@H]1NC(=O)[C@H](CCCCN)NC(=O)[C@H](CCCCN)NC(=O)[C@H](Cc2ccc(O)cc2)NC(=O)[C@H](CC(C)C)NC(=O)[C@@H]2CCCN2C(=O)[C@H](C)NC(=O)CNC(=O)CNC(=O)[C@H](CO)NC(=O)CNC(=O)CNC(=O)[C@H](CO)NC(=O)[C@H](CCC(=O)O)NC(=O)[C@H](CC(C)C)NC(=O)[C@H](CC(C)C)NC(=O)[C@H](CCCCN)NC(=O)[C@H](CCCCN)NC(=O)[C@H]([C@@H](C)CC)NC(=O)[C@H]([C@@H](C)CC)NC(=O)[C@H](CCCCN)NC(=O)[C@H](CCCCN)NC(=O)[C@H](Cc2ccc(O)cc2)NC(=O)[C@H](CC(C)C)NC(=O)[C@@H]2CCCN2C(=O)[C@H](C)NC(=O)CNC(=O)[C@@H]2CSSC[C@H](NC(=O)[C@H](CC(C)C)NC(=O)[C@H](CCCCN)NC(=O)[C@H](CCCCN)NC(=O)[C@H]([C@@H](C)CC)NC1=O)C(=O)N[C@@H](CCCCN)C(=O)N[C@@H](CC(N)=O)C(=O)NCC(=O)N2
IC50 (parasite growth; 3D7; 72 h, 5% serum plus Albumax II): 14400 ± 1300 nM

COC(=O)[C@@H]1Cc2c([nH]c3ccccc23)[C@@H](c2cccnc2)N1
IC50 (parasite growth; 48 h, drug-resistant strain, blood stage): 2.12 µg/mL

O=C(O)[C@@H]1Cc2c([nH]c3ccccc23)[C@@H](c2ccc(Cl)cc2Br)N1
IC50 (parasite growth; Dd2; 72 h): 360 ± 40 nM

CCC1=CC(c2ccc[nH]2)=NC1=CNC1CCCCCCC1
IC50 (parasite growth; Dd2, chloroquine-resistant): > 250 nM

O=C1C(O)=C(I)C(=O)c2ccccc21
IC50 (parasite growth, SYBR Green; F32; drug-resistant strain, blood stage): > 50000 nM
